Experimental data of several laboratories.
Parts stem from different laboratories: compare values within a part only.
UniProt Q9HAZ1, sequence (whole entry, looked up): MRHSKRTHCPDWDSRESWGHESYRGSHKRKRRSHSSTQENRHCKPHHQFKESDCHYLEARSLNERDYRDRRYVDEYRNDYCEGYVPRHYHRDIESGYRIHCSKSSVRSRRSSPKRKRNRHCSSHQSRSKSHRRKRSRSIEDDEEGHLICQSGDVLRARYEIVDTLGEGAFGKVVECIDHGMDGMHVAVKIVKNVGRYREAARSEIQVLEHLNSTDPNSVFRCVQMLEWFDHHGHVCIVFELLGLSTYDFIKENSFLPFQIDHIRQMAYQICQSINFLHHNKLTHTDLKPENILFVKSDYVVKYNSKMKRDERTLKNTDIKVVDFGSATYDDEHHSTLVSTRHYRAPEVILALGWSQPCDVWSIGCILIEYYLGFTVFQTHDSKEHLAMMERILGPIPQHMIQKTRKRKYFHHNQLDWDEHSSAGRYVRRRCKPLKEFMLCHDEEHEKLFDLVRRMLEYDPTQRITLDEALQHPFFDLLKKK
UniProt P49761, sequence (whole entry, looked up): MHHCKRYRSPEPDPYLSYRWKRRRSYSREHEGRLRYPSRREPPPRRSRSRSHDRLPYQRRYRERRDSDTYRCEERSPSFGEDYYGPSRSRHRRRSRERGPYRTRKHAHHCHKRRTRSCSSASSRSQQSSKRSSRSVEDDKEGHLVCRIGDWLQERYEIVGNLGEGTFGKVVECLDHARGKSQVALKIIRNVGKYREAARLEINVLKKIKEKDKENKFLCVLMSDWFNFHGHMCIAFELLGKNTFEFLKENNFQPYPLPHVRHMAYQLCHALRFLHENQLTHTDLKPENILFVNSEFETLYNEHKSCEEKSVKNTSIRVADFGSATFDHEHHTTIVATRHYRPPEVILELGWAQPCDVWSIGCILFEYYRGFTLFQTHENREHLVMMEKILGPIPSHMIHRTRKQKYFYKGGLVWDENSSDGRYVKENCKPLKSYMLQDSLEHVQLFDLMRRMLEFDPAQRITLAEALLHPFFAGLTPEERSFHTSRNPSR
UniProt P47898, sequence (whole entry, looked up): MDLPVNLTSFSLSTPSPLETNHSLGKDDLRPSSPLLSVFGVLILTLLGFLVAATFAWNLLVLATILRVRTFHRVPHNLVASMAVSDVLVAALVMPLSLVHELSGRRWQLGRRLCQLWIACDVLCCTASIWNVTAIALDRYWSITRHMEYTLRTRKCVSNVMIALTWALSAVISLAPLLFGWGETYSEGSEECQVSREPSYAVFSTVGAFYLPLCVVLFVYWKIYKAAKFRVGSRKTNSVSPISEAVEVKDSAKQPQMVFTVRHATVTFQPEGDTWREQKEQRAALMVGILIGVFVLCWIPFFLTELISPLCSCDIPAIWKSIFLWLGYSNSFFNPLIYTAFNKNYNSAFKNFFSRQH
UniProt Q15759, sequence (whole entry, looked up): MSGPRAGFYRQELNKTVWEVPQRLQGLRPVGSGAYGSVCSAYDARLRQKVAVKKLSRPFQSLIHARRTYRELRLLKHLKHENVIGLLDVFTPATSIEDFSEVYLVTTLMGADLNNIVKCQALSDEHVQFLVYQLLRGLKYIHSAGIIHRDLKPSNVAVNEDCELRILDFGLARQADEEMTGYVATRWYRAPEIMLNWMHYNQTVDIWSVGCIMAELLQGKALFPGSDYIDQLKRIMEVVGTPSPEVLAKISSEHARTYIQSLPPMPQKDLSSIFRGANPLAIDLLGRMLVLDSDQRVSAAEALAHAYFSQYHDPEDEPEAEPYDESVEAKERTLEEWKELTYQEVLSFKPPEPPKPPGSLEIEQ
UniProt P35968, sequence (whole entry, looked up): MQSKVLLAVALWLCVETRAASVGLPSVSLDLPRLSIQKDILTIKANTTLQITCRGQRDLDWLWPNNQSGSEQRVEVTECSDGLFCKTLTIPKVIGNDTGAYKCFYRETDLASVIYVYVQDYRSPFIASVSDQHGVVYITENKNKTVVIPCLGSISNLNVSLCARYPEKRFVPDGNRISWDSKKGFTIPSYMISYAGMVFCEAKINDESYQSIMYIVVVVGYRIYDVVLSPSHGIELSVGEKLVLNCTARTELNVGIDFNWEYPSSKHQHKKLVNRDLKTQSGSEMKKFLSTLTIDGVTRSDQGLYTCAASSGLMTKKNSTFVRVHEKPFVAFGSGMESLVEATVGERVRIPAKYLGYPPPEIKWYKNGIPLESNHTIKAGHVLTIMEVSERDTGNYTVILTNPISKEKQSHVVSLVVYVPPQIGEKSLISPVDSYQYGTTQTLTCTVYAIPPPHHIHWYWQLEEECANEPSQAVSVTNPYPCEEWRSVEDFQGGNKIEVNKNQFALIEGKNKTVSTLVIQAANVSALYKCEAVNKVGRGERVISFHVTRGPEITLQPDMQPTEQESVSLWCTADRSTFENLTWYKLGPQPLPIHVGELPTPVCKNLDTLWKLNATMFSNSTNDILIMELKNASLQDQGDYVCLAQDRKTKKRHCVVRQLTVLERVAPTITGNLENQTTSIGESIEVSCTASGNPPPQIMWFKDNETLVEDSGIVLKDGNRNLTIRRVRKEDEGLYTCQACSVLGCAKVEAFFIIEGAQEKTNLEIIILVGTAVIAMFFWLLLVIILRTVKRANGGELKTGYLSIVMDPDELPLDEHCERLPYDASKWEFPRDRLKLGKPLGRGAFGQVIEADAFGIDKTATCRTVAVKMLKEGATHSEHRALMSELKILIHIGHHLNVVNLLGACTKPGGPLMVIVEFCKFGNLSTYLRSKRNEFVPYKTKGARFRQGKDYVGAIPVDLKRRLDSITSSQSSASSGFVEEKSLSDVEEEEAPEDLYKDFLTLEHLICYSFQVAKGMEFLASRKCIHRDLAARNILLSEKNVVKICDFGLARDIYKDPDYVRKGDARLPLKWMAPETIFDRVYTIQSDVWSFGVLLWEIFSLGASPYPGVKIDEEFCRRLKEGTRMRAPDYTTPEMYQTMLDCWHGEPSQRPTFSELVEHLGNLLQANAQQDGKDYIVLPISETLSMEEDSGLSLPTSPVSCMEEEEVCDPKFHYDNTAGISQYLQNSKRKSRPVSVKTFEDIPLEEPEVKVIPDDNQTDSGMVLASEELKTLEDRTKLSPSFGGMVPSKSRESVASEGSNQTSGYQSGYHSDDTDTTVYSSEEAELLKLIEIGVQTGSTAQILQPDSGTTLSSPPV
UniProt Q16566, sequence (whole entry, looked up): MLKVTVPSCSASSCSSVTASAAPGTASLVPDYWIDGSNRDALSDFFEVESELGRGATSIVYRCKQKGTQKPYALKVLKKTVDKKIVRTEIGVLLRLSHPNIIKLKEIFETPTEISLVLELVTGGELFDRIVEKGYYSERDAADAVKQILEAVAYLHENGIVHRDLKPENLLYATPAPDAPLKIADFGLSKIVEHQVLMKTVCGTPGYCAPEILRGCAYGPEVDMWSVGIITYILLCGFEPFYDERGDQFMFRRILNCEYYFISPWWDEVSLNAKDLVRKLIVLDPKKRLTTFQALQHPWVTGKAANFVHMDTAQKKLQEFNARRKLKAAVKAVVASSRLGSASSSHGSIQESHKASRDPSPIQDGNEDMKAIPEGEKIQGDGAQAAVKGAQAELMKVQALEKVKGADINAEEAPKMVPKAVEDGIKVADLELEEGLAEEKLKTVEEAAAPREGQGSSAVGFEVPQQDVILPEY
UniProt O75914, sequence (whole entry, looked up): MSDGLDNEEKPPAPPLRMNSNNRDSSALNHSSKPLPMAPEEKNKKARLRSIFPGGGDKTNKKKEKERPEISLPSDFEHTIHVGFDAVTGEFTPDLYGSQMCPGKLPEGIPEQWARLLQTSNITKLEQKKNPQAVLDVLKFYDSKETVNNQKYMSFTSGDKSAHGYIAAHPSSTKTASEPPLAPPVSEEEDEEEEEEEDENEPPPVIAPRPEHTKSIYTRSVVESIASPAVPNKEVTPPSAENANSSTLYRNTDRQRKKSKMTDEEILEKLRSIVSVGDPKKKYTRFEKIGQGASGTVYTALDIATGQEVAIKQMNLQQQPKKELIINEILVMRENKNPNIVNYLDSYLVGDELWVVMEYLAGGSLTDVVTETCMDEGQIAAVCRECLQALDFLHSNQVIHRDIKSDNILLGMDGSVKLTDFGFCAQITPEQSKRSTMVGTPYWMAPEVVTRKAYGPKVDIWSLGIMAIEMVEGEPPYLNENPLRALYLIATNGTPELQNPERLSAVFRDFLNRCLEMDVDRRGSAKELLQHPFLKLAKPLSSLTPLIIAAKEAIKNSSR
UniProt P42681, sequence (whole entry, looked up): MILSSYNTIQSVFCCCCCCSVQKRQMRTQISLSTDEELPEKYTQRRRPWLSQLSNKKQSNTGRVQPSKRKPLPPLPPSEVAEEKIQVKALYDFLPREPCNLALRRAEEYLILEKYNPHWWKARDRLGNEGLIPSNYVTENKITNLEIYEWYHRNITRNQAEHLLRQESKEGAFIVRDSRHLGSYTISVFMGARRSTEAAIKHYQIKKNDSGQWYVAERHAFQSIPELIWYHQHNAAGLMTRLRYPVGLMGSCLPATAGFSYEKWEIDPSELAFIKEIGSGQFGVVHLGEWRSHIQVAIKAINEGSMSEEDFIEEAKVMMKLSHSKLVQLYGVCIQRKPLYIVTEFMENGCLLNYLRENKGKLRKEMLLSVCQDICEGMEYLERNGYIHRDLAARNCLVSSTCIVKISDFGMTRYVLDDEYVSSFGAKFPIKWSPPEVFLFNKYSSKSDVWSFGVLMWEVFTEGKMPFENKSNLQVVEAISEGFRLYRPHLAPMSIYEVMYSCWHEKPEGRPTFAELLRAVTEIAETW

Study 1
SMILES: Nc1nc(Nc2ccc(S(N)(=O)=O)cc2)nn1C(=S)Nc1c(F)cccc1F
Observed: enzyme activity
Action: inhibitor
Concentration: 0.5 µM
Baseline: control
target | remaining activity [%]
Dual specificity protein kinase CLK3 (CLK3, Homo sapiens, UniProt P49761) | 4.64
Mitogen-activated protein kinase 1 (MAPK1, Homo sapiens, UniProt P28482) | 76.2
Mitogen-activated protein kinase 11 (MAPK11, Homo sapiens, UniProt Q15759) | 78.5
Cyclin-dependent kinase 1, with cyclin A (CDK1, Homo sapiens, UniProt P06493) | -0.154
Dual specificity mitogen-activated protein kinase kinase 1 (MAP2K1, Homo sapiens, UniProt Q02750) | 94.6
Rho-associated protein kinase 1 (ROCK1, Homo sapiens, UniProt Q13464) | 0.17
Hepatocyte growth factor receptor (MET, Homo sapiens, UniProt P08581) | 40.4
Dual specificity protein kinase CLK4 (CLK4, Homo sapiens, UniProt Q9HAZ1) | 1.92
Vascular endothelial growth factor receptor 2 (KDR, Homo sapiens, UniProt P35968) | 6.55
Serine/threonine-protein kinase PLK3 (PLK3, Homo sapiens, UniProt Q9H4B4) | 92.2
Serine/threonine-protein kinase PAK 3 (PAK3, Homo sapiens, UniProt O75914) | 35.4
Tyrosine-protein kinase TXK (TXK, Homo sapiens, UniProt P42681) | 85.8
Calcium/calmodulin-dependent protein kinase type IV (CAMK4, Homo sapiens, UniProt Q16566) | 98.8

Study 2
Target: Centromere-binding protein 1, full length, His-tagged (CBF1, Saccharomyces cerevisiae, UniProt P17106, residues 1-351)
UniProt P17106, sequence (whole entry, looked up): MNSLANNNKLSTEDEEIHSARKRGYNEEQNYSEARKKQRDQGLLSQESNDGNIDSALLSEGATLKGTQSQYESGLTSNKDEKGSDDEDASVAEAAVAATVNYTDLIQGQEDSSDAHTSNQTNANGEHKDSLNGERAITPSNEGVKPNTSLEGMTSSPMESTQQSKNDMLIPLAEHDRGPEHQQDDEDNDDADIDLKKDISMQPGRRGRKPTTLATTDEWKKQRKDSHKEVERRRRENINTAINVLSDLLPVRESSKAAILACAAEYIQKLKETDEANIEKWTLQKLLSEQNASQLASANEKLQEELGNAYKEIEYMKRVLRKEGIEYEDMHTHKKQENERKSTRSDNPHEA
Method: competition protein-binding microarray
Form: double-stranded DNA, one strand shown
Matrix: in vitro
Concentration: 2 µM
Setting: whole 60-bp probe, lowest competitor level
Added: Pho4 competitor, 0.05 µM
Reading: higher = stronger binding
Constant ends, left off below: … GTCTTGATTCGCTTGACGCTGCTG
Sequence | fluorescence intensity
CGTTGGGCTGAAGACGACATGATAATTAAGAGAGCC | 68 a.u.
CGCCGTTCAGGGGTCCATGTGCCTTGGACGATATTA | 70.1 a.u.
AAATTACTAAGTTGCAACGTGGGTGACGCCGTATGA | 91.3 a.u.
CAATGTCCATTTTAGCACGTGGGACTTGTTCTGTGG | 1480 a.u.
AAAGCGGTAATTTTTCACGTGCGATCAAATATCTAT | 1220 a.u.
CAGATGTTCGTGTAATGGTACCCGACACTCGATGAG | 61.4 a.u.
TGTCGCTCTCCCAGCCACGCTCGAAGGACTTGCTGA | 51 a.u.
AGGGTCTGATCCCTTCCCGTGGGTAGACCGATGACC | 63.5 a.u.

Study 3
Target: Histone acetyltransferase KAT6A, both winged helices, GST fusion (KAT6A, Homo sapiens, UniProt Q92794, residues 1-181)
Method: protein binding microarray
Form: double-stranded DNA, one strand shown
Matrix: in vitro
Concentration: not given
Setting: 8-mer, flanks averaged, mean of 2 arrays, mostly near background
Baseline: not given
Reading: higher = stronger binding
Target sequence (chain): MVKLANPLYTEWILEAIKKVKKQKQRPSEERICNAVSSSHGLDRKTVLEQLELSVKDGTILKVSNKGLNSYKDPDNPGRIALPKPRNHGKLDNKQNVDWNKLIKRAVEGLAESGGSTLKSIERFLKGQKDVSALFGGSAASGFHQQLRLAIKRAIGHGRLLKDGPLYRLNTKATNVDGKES
Sequence | E-score
CGGCACAA | 0.215
ATCTTAGG | -0.184
CGCAACAA | 0.0456
GCCTATCC | -0.0587
CCTTGGTC | -0.0876
CGCCACCA | -0.00145
ACGCTGCG | 0.185
GCGCGACC | 0.296

Mixed results
Structure (SMILES) | target | assay | setting | quantity | result
CC1=C(C#N)C(c2ccc3c(c2)c(NC(=O)c2ccccc2C)nn3C)C(C#N)=C(C)N1 | 5-hydroxytryptamine receptor 5A (HTR5A, Homo sapiens, UniProt P47898) | ligand displacement | 10 µM | inhibition | 0.04%

A few entries again (study 2):
Sequence | fluorescence intensity
CGCCGTTCAGGGGTCCATGTGCCTTGGACGATATTA | 70.1 a.u.
AAATTACTAAGTTGCAACGTGGGTGACGCCGTATGA | 91.3 a.u.
CAATGTCCATTTTAGCACGTGGGACTTGTTCTGTGG | 1480 a.u.
AAAGCGGTAATTTTTCACGTGCGATCAAATATCTAT | 1220 a.u.
